Measurements from different studies.
Each line is one published result; not all experiments were run side by side. Values after ≈ are worked out from the molar mass of the structure shown.
Organism: Pseudomonas aeruginosa

Structure (SMILES)	test	system	setting	scale	endpoint	result
CC[C@H](C)[C@H](NC(=O)[C@H](Cc1c[nH]cn1)NC(=O)[C@H](CCCCNC(=O)[C@@H](NC(=O)[C@H](CCCCN)NC(=O)CSC[C@H](NC(=O)[C@H](Cc1ccccc1)NC(=O)[C@H](CCCCNC(=O)[C@H](CC(C)C)NC(=O)[C@@H]1CCCN1C(=O)[C@H](CCCCN)NC(=O)c1ccc(O[C@@H]2O[C@H](CO)[C@H](O)[C@H](O)[C@H]2O)cc1)NC(=O)[C@H](CC(C)C)NC(=O)[C@@H]1CCCN1C(=O)[C@H](CCCCN)NC(=O)C[C@@H]1O[C@@H](C)[C@@H](O)[C@@H](O)[C@@H]1O)C(N)=O)[C@@H](C)CC)NC(=O)[C@@H](NC(=O)[C@H](CCCCN)NC(=O)CSC[C@H](NC(=O)[C@H](Cc1ccccc1)NC(=O)[C@H](CCCCNC(=O)[C@H](CC(C)C)NC(=O)[C@@H]1CCCN1C(=O)[C@H](CCCCN)NC(=O)c1ccc(O[C@@H]2O[C@H](CO)[C@H](O)[C@H](O)[C@H]2O)cc1)NC(=O)[C@H](CC(C)C)NC(=O)[C@@H]1CCCN1C(=O)[C@H](CCCCN)NC(=O)C[C@@H]1O[C@@H](C)[C@@H](O)[C@@H](O)[C@@H]1O)C(N)=O)[C@@H](C)CC)C(N)=O	biofilm formation	PAO1	24 h	–	MBIC	30 µM
CC[C@H](C)[C@H](NC(=O)[C@H](CCCCN)NC(=O)[C@H](CCCCN)NC(=O)[C@H](CC(C)C)NC(=O)[C@H](CCCCN)NC(=O)[C@H](CCC(=O)O)NC(=O)[C@H](CCCCN)NC(=O)[C@@H](NC(=O)[C@H](CCCCN)NC(=O)[C@H](CC(N)=O)NC(=O)[C@H](CCCNC(=N)N)NC(=O)[C@H](Cc1ccccc1)NC(=O)[C@H](CCCCN)NC(=O)[C@H](CCCNC(=N)N)NC(=O)[C@H](CC(C)C)NC(=O)[C@H](CCCNC(=N)N)NC(=O)[C@H](CCCCN)NC(=O)[C@H](CCCNC(=N)N)NC(=O)[C@H](CC(C)C)NC(=O)[C@@H](N)CC(C)C)[C@@H](C)CC)C(=O)NCC(=O)N[C@@H](CCC(N)=O)C(=O)N[C@@H](CCCCN)C(=O)N[C@H](C(=O)N[C@@H](CCC(N)=O)C(=O)NCC(=O)N[C@@H](Cc1ccccc1)C(=O)N[C@H](C(=O)N1CCC[C@H]1C(=O)N[C@@H](CCCCN)C(=O)N[C@@H](CC(C)C)C(=O)N[C@H](C(=O)N1CCC[C@H]1C(=O)N[C@@H](CCCNC(=N)N)C(=O)N[C@H](C(=O)N[C@@H](CCC(=O)O)C(=O)N[C@@H](CO)C(=O)O)[C@@H](C)O)C(C)C)C(C)C)[C@@H](C)CC	inhibition zone	O1	LB agar, overnight	–	lethal concentration	1.95 µM
O=C1NC(=O)c2c(NCCCc3cccc(O)c3)cccc21	–	PAO1	concentration not given, 18 h, together with: levofloxacin 0.5 µg/mL	baseline: levofloxacin alone	survival reduction	~50 fold
C[C@@](O)(C(F)F)[C@H](NC(=O)c1ccc(C#CC#CC2CC2)cc1)C(=O)NO	agar dilution	MDR/XDR clinical isolates	–	–	MIC50	0.5 µg/mL (≈ 1.33 µM)
CC[C@H](C)[C@H](NC(=O)[C@H](CCCCN)NC(=O)[C@H](CCCCN)NC(=O)[C@H](CC(C)C)NC(=O)[C@H](CCCCN)NC(=O)[C@H](CCC(=O)O)NC(=O)[C@H](CCCCN)NC(=O)[C@@H](NC(=O)[C@H](CCCCN)NC(=O)[C@H](CC(N)=O)NC(=O)[C@H](CCCNC(=N)N)NC(=O)[C@H](Cc1ccccc1)NC(=O)[C@H](CCCCN)NC(=O)[C@H](CCCNC(=N)N)NC(=O)[C@H](CC(C)C)NC(=O)[C@H](CCCNC(=N)N)NC(=O)[C@H](CCCCN)NC(=O)[C@H](CCCNC(=N)N)NC(=O)[C@H](CC(C)C)NC(=O)[C@@H](N)CCCNC(=N)N)[C@@H](C)CC)C(=O)NCC(=O)N[C@@H](CCC(N)=O)C(=O)N[C@@H](CCCCN)C(=O)N[C@H](C(=O)N[C@@H](CCC(N)=O)C(=O)NCC(=O)N[C@@H](Cc1ccccc1)C(=O)N[C@H](C(=O)N1CCC[C@H]1C(=O)N[C@@H](CCCCN)C(=O)N[C@@H](CC(C)C)C(=O)N[C@@H](CCC(N)=O)C(=O)N1CCC[C@H]1C(=O)N[C@@H](CO)C(=O)N[C@@H](CCCCN)C(=O)N[C@@H](CCC(N)=O)C(=O)N[C@@H](CO)C(=O)O)C(C)C)[C@@H](C)CC	inhibition zone method	11082603, LB 0.8% agar with 154 mM NaCl	overnight, 37 °C	–	lethal concentration	5.77 µM
CC(C)C[C@@H]1NC(=O)[C@H](CCCCN)NC(=O)CSC[C@@H](C(=O)N[C@@H](CCCCN)C(N)=O)NC(=O)[C@H](CC(C)C)NC(=O)[C@H](CC(C)C)NC(=O)[C@H](CC(C)C)NC(=O)[C@@H]2CSCC(=O)N[C@@H](CCCCN)C(=O)N[C@@H](CC(C)C)C(=O)N[C@@H](CCCCN)C(=O)N[C@@H](CCCCNC(=O)[C@H](CCCCN)NC1=O)C(=O)N[C@@H](CCCCN)C(=O)N[C@@H](CC(C)C)C(=O)N[C@@H](CC(C)C)C(=O)N2	–	PAO1	24 to 25 h	–	minimal biofilm inhibitory concentration	32 µg/mL
CC[C@H](C)[C@H](NC(=O)[C@H](CCCNC(=N)N)NC(=O)[C@@H](NC(=O)[C@H](C)NC(=O)[C@@H](NC(=O)[C@@H](NC(=O)[C@H](CC(C)C)NC(=O)[C@H](CCCNC(=N)N)NC(=O)[C@@H](N)C(C)C)[C@@H](C)CC)C(C)C)C(C)C)C(=O)N[C@@H](Cc1c[nH]c2ccccc12)C(=O)N[C@@H](CCCNC(=N)N)C(=O)N[C@@H](CCCNC(=N)N)C(N)=O	propidium iodide staining	gfp-tagged	10 µg/mL, added at start, shear flow	–	biofilm inhibition	99%
CC[C@H](C)[C@H](NC(=O)[C@H](CCCNC(=N)N)NC(=O)[C@H](CCCCN)NC(=O)[C@H](CC(C)C)NC(=O)[C@H](CC(C)C)NC(=O)CN)C(=O)N[C@@H](CCCCN)C(=O)N[C@H](C(=O)N[C@@H](CC(C)C)C(=O)N[C@@H](CC(C)C)C(=O)NCCCC[C@H](NC(=O)[C@H](CC(C)C)NC(=O)[C@H](CC(C)C)NC(=O)[C@@H](NC(=O)[C@H](CCCCN)NC(=O)[C@@H](NC(=O)[C@H](CCCNC(=N)N)NC(=O)[C@H](CCCCN)NC(=O)[C@H](CC(C)C)NC(=O)[C@H](CC(C)C)NC(=O)CN)[C@@H](C)CC)[C@@H](C)O)C(N)=O)[C@@H](C)O	checkerboard	ATCC 27853	together with: polymyxin B	–	FIC index	0.312
CC(C)C[C@@H]1NC(=O)[C@H](CCCCN)NC(=O)CSC[C@@H]2NC(=O)[C@H](CC(C)C)NC(=O)[C@H](CC(C)C)NC(=O)[C@H](CCCCN)NC(=O)[C@H](CCCCNC(=O)[C@H](CCCCN)NC1=O)NC(=O)[C@H](CCCCN)NC(=O)[C@H](CC(C)C)NC(=O)[C@H](CCCCN)NC(=O)CSC[C@@H](C(=O)N[C@@H](CCCCN)C(N)=O)NC(=O)[C@H](CCCCN)NC(=O)[C@H](CC(C)C)NC(=O)[C@H](CC(C)C)NC2=O	–	PAO1	24 to 25 h	–	minimal biofilm inhibitory concentration	> 32 µg/mL
CC(CCC(=O)[O-])C1CCC2C3CCC4CC(O)CCC4(C)C3CCC12C.C[N+](C)(C)CC(O)CC(=O)O (stereo not shown)	–	TISTR357	1 mg per disc, 18 to 24 h, 37 °C	–	antibacterial activity	inactive
